Measured values of several laboratories.
Several values in a cell are separate wells, animals, samples, runs or records. ± gives the spread as reported.
dncV: dncV (Vibrio cholerae, UniProt Q9KVG7)
CFTR del508-508: Cystic fibrosis transmembrane conductance regulator (CFTR, Homo sapiens, UniProt P13569, del508-508)

Compound	tested on	test	test system	conditions	how to read	measurement	result
CCCCCn1cc(C(=O)c2cccc3c2CC(C)(C)C3)c2ccccc21	Cannabinoid receptor 1 (CNR1, Homo sapiens, UniProt P21554, I267L)	Gαi1 engagement, agonist, BRET	–	–	baseline: wild type	Emax decrease	~50%
Nc1nc2c([C@@H]3O[C@@H]4COP(=O)(O)O[C@H]5[C@@H](O)[C@H](c6scc7c(=O)[nH]c(N)nc67)O[C@@H]5COP(=O)(O)O[C@H]4[C@H]3O)scc2c(=O)[nH]1	dncV	substrate	–	–	baseline: cyclization over intermediate degradation	k2/k3 ratio	8
Cc1ccc(-n2cc(C3(c4ccc5c(c4)OC(F)(F)O5)CC3)nn2)cc1-c1cccc(C(=O)O)c1	CFTR del508-508	chloride conductance, corrector	CFBE41o- F508del	–	baseline: 3 µM VX-809	Emax	48.1% and 48%
CC(C)C[C@H](NC(=O)[C@H](Cc1ccccc1)NC(=O)CNC(=O)CNC(=O)[C@@H](N)Cc1ccc(OC(C(=O)O)c2ccccc2[N+](=O)[O-])cc1)C(=O)O (some centres unmarked)	–	K+ current, agonist, photo-uncaging	rat locus coeruleus neurons	concentration not given	–	peak current	179 ± 9 pA
CCCCCn1cc(C(=O)c2ccc3c(c2)CC(C)(C)C3)c2ccccc21	Cannabinoid receptor 2 (CNR2, Homo sapiens, UniProt P34972, L182I)	Gαi1 engagement, agonist, BRET	–	–	baseline: reference agonist at wild-type CB2	Emax	26.3 ± 3.6%
C[C@H](NC(=O)[C@H](CCC(N)=O)NC(=O)[C@H](CCCCN)NC(=O)[C@H](C)NC(=O)[C@@H]1CCCN1C(=O)[C@H](C)NC(=O)[C@H](CCCCN)NC(=O)[C@H](CCC(N)=O)NC(=O)[C@H](C)NC(=O)[C@H](CCCCN)NC(=O)[C@H](CCC(N)=O)NC(=O)[C@@H]1CCCN1C(=O)[C@H](CCC(N)=O)NC(=O)[C@H](CCCCN)NC(=O)[C@H](C)NC(=O)[C@H](CCC(N)=O)NC(=O)[C@H](CCCCN)NC(=O)[C@H](C)NC(=O)[C@@H]1CCCN1C(=O)[C@H](C)NC(=O)[C@H](CCCCN)NC(=O)[C@H](CCC(N)=O)NC(=O)[C@H](C)NC(=O)[C@H](CCCCN)NC(=O)[C@H](CO)NC(=O)[C@H](Cc1ccc(O)cc1)NC(=O)CNC(=O)CNC(=O)CN)C(=O)N[C@@H](CCCCN)C(=O)N[C@@H](CCC(N)=O)C(=O)O	–	binding, SPR Langmuir fit	rVλ6Wil fibrils	300 nM, pH 7.4	–	Rmax	17.6 RU
CCCCCn1cc(C(=O)c2cccc3ccccc23)c2ccccc21	Cannabinoid receptor 1 (CNR1, Homo sapiens, UniProt P21554)	β-arrestin recruitment, agonist, BRET	HEK-293T	–	–	Emax	168%
NCCCC[C@H](NC(=O)CNC(=O)CNC(=O)[C@H](CCCCN)NC(=O)CNC(=O)CNC(=O)CNC(=O)[C@H](CCCCN)NC(=O)CNC(=O)CNC(=O)[C@H](CCCCN)NC(=O)CNC(=O)CNC(=O)CNC(=O)[C@H](CCCCN)NC(=O)CNC(=O)CNC(=O)[C@H](CCCCN)NC(=O)CNC(=O)CNC(=O)CNC(=O)[C@H](CCCCN)NC(=O)CNC(=O)CNC(=O)[C@H](CCCCN)NC(=O)[C@H](CO)NC(=O)[C@H](Cc1ccc(O)cc1)NC(=O)CNC(=O)CNC(=O)CN)C(=O)NCC(=O)O	–	binding, SPR two-state model	rVλ6Wil fibrils	300 nM	–	Rmax	19 RU
COc1ccc(C2(C(=O)Nc3ccc(C)c(-c4cccc(C(=O)O)c4)c3)CC2)cc1	CFTR del508-508	chloride conductance, corrector	CFBE41o- F508del	–	baseline: 3 µM VX-809	Emax	54% and 54.1%
CC(=O)N[C@@H](CCC(=O)O)C(=O)N[C@@H](CCC(N)=O)C(=O)N[C@H](C(=O)N[C@@H](CCC(=O)O)C(=O)N[C@@H](CC(C)C)C(=O)N[C@@H](CCC(=O)O)C(=O)N[C@@H](Cc1ccccc1)C(=O)N[C@@H](CC(=O)O)C(=O)O)C(C)C	Beta sliding clamp (Escherichia coli, UniProt P0A988)	HDX-MS	–	50 µM, 10 s, pH pD 7.4, 37 °C, target 5 µM	–	deuterium uptake	84 ± 2 Da
COc1ccc2cc(C(CC(=O)O)CC(=O)O)ccc2c1	Nucleoprotein (Influenza A virus, UniProt P15682)	–	–	NP–RNA complex	–	particle size	15 to 17 nm
Nc1nc2c([C@@H]3O[C@@H]4COP(=O)(O)O[C@H]5[C@@H](O)[C@H](c6snc7c(=O)[nH]c(N)nc67)O[C@@H]5COP(=O)(O)O[C@H]4[C@H]3O)snc2c(=O)[nH]1	dncV	substrate, HPLC	–	500 µM, 37 °C	–	cyclization rate constant k2	0.0034 ± 0.0002 s⁻¹
CC(C)(C)c1cc(C(C)(C)C)c(-n2cc(-c3cnc4ccccc4c3O)nn2)cc1O	CFTR del508-508	short-circuit current, potentiator	CFBE41o- F508del	24 h, together with: VX-809 3 µM, forskolin 10 µM	–	EC50	inactive
C[C@@H](NC(=O)[C@@H](CCC(N)=O)NC(=O)[C@@H](C)NC(=O)[C@@H](CCCCN)NC(=O)[C@@H](CCC(N)=O)NC(=O)[C@@H](C)NC(=O)[C@@H](CCCCN)NC(=O)[C@@H](CCC(N)=O)NC(=O)[C@@H](C)NC(=O)[C@@H](CCC(N)=O)NC(=O)[C@@H](CCCCN)NC(=O)[C@@H](C)NC(=O)[C@@H](CCC(N)=O)NC(=O)[C@@H](CCCCN)NC(=O)[C@@H](C)NC(=O)[C@@H](CCC(N)=O)NC(=O)[C@@H](C)NC(=O)[C@@H](CCCCN)NC(=O)[C@@H](CCC(N)=O)NC(=O)[C@@H](C)NC(=O)[C@@H](CCCCN)NC(=O)[C@@H](CO)NC(=O)[C@@H](Cc1ccc(O)cc1)NC(=O)CNC(=O)CNC(=O)CN)C(=O)N[C@H](CCCCN)C(=O)N[C@H](CCC(N)=O)C(=O)N[C@H](C)C(=O)N[C@H](CCCCN)C(=O)N[C@H](CCC(N)=O)C(=O)O	–	binding, SPR Langmuir fit	rVλ6Wil fibrils	300 nM, pH 7.4	–	Rmax	36.5 RU
Nc1nc2c([C@@H]3O[C@H](COP(=O)(O)OP(=O)(O)OP(=O)(O)O)[C@@H](O)[C@H]3O)snc2c(=O)[nH]1	dncV	substrate, HPLC	–	500 µM, 37 °C	–	intermediate degradation rate k3	0.00013 ± 1e-05 s⁻¹
CC(C)[C@H](N)C(=O)N[C@@H](Cc1ccc(O)cc1)C(=O)N[C@@H](CCCCN)C(=O)N[C@H](C(=O)N[C@@H](CCCCN)C(=O)N[C@H](C(=O)N[C@@H](CCCCN)C(=O)N[C@H](C(=O)N[C@@H](CCCCN)C(=O)N[C@H](C(=O)N[C@@H](CCCCN)C(=O)N[C@H](C(=O)N[C@@H](CCCCN)C(=O)N[C@H](C(=O)N[C@@H](CCCCN)C(=O)N[C@H](C(=O)N[C@@H](CCCCN)C(=O)N[C@H](C(=O)O)[C@@H](C)O)C(C)C)[C@@H](C)O)C(C)C)[C@@H](C)O)C(C)C)[C@@H](C)O)C(C)C	–	binding, SPR two-state model	rVλ6Wil fibrils	300 nM, pH 7.4	–	ka1	420000 M⁻¹ s⁻¹
CCN(Cc1ccccc1)C(=O)CCc1nc(CN2CCN(C(=O)Cc3ccc(OC)c(OC)c3)CC2)no1	Potassium voltage-gated channel subfamily KQT member 4 (KCNQ4, Homo sapiens, UniProt P56696)	potassium current, whole-cell patch clamp	CHO, stable	30 nM	–	activation V1/2	-29.3 ± 1.64 mV

A few entries again:
Compound	tested on	test	test system	conditions	how to read	measurement	result
CC(=O)N[C@@H](CCC(=O)O)C(=O)N[C@@H](CCC(N)=O)C(=O)N[C@H](C(=O)N[C@@H](CCC(=O)O)C(=O)N[C@@H](CC(C)C)C(=O)N[C@@H](CCC(=O)O)C(=O)N[C@@H](Cc1ccccc1)C(=O)N[C@@H](CC(=O)O)C(=O)O)C(C)C	Beta sliding clamp (Escherichia coli, UniProt P0A988)	HDX-MS	–	50 µM, 10 s, pH pD 7.4, 37 °C, target 5 µM	–	deuterium uptake	84 ± 2 Da
COc1ccc2cc(C(CC(=O)O)CC(=O)O)ccc2c1	Nucleoprotein (Influenza A virus, UniProt P15682)	–	–	NP–RNA complex	–	particle size	15 to 17 nm
Nc1nc2c([C@@H]3O[C@@H]4COP(=O)(O)O[C@H]5[C@@H](O)[C@H](c6snc7c(=O)[nH]c(N)nc67)O[C@@H]5COP(=O)(O)O[C@H]4[C@H]3O)snc2c(=O)[nH]1	dncV	substrate, HPLC	–	500 µM, 37 °C	–	cyclization rate constant k2	0.0034 ± 0.0002 s⁻¹
